Measured values of several laboratories.
Each numbered part is a random draw from the data of one study; scales do not carry over between parts.

Study 1
Target: Interferon regulatory factor 7, full length, phosphomimetic (IRF7, Homo sapiens, UniProt Q92985, residues 1-503, S101K/S471D/S472D/S475D/S476D/S477D/S483D/S484D/S487D)
Technique: protein-binding microarray
Molecule type: double-stranded DNA, one strand shown
Matrix: in vitro
Tested at: 250 nM
Notes: 60-bp whole probe
With: salmon DNA 0.4 mg/ml
Baseline: random background probes
Direction: higher = stronger binding
Constant ends, left off below: GCCTAGCAC … GTCTTGATTCGCTTGACGCTGCTG
Construct (chain): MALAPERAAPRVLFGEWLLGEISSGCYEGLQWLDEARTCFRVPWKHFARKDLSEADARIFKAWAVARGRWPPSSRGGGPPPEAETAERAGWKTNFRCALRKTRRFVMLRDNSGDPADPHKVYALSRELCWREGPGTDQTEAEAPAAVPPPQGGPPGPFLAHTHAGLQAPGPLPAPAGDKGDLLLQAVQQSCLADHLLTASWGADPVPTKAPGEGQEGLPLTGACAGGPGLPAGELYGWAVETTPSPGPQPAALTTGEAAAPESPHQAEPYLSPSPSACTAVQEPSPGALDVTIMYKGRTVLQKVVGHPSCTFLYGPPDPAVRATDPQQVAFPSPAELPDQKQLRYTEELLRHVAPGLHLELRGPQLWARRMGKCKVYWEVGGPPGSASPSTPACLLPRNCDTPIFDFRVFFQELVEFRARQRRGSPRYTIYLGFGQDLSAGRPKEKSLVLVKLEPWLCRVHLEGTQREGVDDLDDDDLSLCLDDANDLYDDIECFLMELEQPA
| Oligonucleotide | log fluorescence [z-score] |
| --- | --- |
| GACGGTATCCGTTTCGGGACGTGCTAG | 1.78 |
| TTAGCACTGCTACTGCTTTAGTGCTAG | -0.545 |
| TCATTAATGCTTCTGGGACTGTGCTAG | 0.243 |
| GACGGTATCCTTTTACTGACGTGCTAG | 1.33 |
| TGAGTCTTCCCTTTTAAGTTGTGCTAG | 1.17 |
| TTAGGCCTCCTACTGCTTTAGTGCTAG | -0.0913 |
| TTAGGACTGCTGCTGCTTTAGTGCTAG | -0.648 |
| GACCGTTTCCTTATCCTGACGTGCTAG | 2.82 |
| GTGAGTTTGACATCTTCATCAGTGCTA | -0.383 |
| GACGAACTGGGGTTTCGAGACGTGCTA | 1.9 |
| TCAGGTATTTTTTTCTAACTGTGCTAG | 0.199 |
| TTAGGTATCGGACTAGGTTAGTGCTAG | 0.538 |
| TTAGAACTGCGGTTTCGATTAGTGCTA | 7.78 |
| TTTCATTGCTGCCCTCAGAAAGTGCTA | 0.57 |
| TTCGCTTTCTTTACCACATTGTGCTAG | 1.11 |
| TCATCCATCACTTTCCAACTGTGCTAG | 0.612 |
| TGGATGGTCCTGGTTTCATGGGTGCTA | 0.0118 |
| TTAGGTTTCCTTATCATTTAGTGCTAG | 2.41 |
| GACGGTATCCTACTGCTGATGTGCTAG | -0.556 |
| TTAGGTTTCGACTCTCGGTTAGTGCTA | 10.3 |
| TTAGGTCGCCTACTGCTTTAGTGCTAG | -0.4 |

Study 2
Target: Ras GTPase-activating protein-binding protein 1, C-terminal RGG region (G3BP1, Homo sapiens, UniProt Q13283)
Sequence of UniProt Q13283 (whole entry, looked up): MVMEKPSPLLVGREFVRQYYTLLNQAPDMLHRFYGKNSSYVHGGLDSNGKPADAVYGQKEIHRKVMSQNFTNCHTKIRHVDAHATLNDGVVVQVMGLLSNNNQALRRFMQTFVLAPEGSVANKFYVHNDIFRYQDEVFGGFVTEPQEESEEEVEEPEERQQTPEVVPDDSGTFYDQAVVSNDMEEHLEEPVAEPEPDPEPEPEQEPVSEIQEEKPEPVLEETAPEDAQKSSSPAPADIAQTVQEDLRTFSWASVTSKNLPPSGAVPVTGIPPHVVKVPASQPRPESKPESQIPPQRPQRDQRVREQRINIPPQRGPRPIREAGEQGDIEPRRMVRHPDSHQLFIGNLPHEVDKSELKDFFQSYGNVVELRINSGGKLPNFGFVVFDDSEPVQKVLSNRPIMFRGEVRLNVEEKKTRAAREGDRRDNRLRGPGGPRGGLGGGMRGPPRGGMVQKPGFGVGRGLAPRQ
Technique: RNA Bind-n-Seq
Molecule type: RNA
Matrix: in vitro
Tested at: 1 µM
Notes: whole 134-nt RNA, ends assumed
With: 150 mM KCl
Baseline: input library
Direction: higher = stronger binding
| Oligonucleotide | log2 enrichment |
| --- | --- |
| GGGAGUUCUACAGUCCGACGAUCGUCCUGUGCUACACAUCGUAUGUACCGAAUCAAACCCAAACCCCCCCAAAUUUUUAAAAAAGUAUUAUGUUACGCCGUUCGGAUCUGCACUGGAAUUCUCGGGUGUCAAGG | -0.843 |
| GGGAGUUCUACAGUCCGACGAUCACCAUGCAGGUGGGCAUCUUUGGGAAGUGGGGCAAGGGGGGGAGAGGGAGGGGGGUAACACUUUGGGAACAGGUGGUCCCAGGUCGUUUCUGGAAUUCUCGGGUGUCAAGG | 2.64 |
| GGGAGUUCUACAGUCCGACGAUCCAAGUCCUGUGCUACACAUCGUAUGUACCGAAUCGGGCCCGGGGCCCGGCCCGGGGAAAGUAUUAUGUUACGCCGUUCGGAUCUGCACUUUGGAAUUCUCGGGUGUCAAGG | -1.97 |
| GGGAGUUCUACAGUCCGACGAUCUAACUUUAGAGGAGGAUCUGAUGGAUAUGGCAGUGGACGUAGAUUUGGGGAUGGCUAUAAUGGGUAUGGAGGAGGACCUGGAGGUGGCAAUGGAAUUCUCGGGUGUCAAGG | -1.06 |
| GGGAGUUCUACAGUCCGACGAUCGCAGGAAGUAAAAACAAAUGGAAAUGCAUCGGAUAGUGGCAGGGGUGGGGGUUGCUAAGGAAAGGGUGGGAUGGGAGUGGGUAAAGAGUUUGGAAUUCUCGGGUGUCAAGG | 2.23 |
| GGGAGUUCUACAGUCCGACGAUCUCAAGUCCUGUGCUACACAUCGUAUGUACCGAAUCGGAAAAAGGUUUGGUUUGGAAAGUAUUAUGUUACGCCGUUCGGAUCUGCACUUCCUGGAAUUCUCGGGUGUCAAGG | -1.43 |
| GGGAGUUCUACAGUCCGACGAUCCCUCAAGUCCUGUGCUACACAUCGUAUGUACCGAAUCGGGGAGGAGGAGGGGAAAGUAUUAUGUUACGCCGUUCGGAUCUGCACUUCCAGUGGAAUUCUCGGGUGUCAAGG | -0.379 |
| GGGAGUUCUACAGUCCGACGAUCAAGUCCUGUGCUACACAUCGUAUGUACCGAAUCGGAAAAGGGGAAAAGGAAAAGGGGAAAGUAUUAUGUUACGCCGUUCGGAUCUGCACUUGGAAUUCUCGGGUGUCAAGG | -1.06 |
| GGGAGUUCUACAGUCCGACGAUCUCCUGUGCUACACAUCGUAUGUACCGAAUCGGAAAAAAAGGUUUUUUUGGUUUUUUUGGAAAGUAUUAUGUUACGCCGUUCGGAUCUGCAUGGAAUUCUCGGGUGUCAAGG | -1.26 |
| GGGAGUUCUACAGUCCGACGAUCAAGUCCUGUGCUACACAUCGUAUGUACCGAAUCGGGGAAAAAGGGGAGGGGUGGGGAAAGUAUUAUGUUACGCCGUUCGGAUCUGCACUUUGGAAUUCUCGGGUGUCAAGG | 1.86 |
| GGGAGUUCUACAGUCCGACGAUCUCAAGUCCUGUGCUACACAUCGUAUGUACCGAAUCGGGUUUUUGGGAGGGAGGGAAAGUAUUAUGUUACGCCGUUCGGAUCUGCACUUCCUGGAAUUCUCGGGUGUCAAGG | 1.31 |
| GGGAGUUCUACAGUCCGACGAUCUGUACUGAUGACAGCUAAUCUCUGAAUCUUUUUCCUCCAGGAUGUUCCUUCAGGAGGAAGCAGCACUAAAAGCACUCUGAGUCAAGAUGAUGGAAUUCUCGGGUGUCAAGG | -1.69 |
| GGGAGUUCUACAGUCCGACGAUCUCAAGUCCUGUGCUACACAUCGUAUGUACCGAAUCGGAAAGGUUUGGAAAAAGGAAAGUAUUAUGUUACGCCGUUCGGAUCUGCACUUCCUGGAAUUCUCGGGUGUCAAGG | -1.41 |
| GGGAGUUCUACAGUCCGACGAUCCAAGUCCUGUGCUACACAUCGUAUGUACCGAAUCGGAAAGGUUUUUUUGGUUUGGAAAGUAUUAUGUUACGCCGUUCGGAUCUGCACUUCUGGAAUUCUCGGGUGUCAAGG | -2.17 |

Study 3
Target: Histone acetyltransferase KAT6A, both winged helices, GST fusion (KAT6A, Homo sapiens, UniProt Q92794, residues 1-181)
Technique: protein binding microarray
Molecule type: double-stranded DNA, one strand shown
Matrix: in vitro
Tested at: not given
Notes: 8-mer, flanks averaged, mean of 2 arrays, mostly near background
Baseline: not given
Direction: higher = stronger binding
Target sequence (chain): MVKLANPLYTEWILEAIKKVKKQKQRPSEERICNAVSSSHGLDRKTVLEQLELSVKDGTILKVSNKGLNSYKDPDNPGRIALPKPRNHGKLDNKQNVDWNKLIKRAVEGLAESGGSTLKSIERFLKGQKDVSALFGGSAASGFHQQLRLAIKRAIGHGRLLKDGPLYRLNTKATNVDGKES
| Oligonucleotide | E-score |
| --- | --- |
| AAGGAAGC | -0.0346 |
| CGCCGAGA | 0.258 |
| ACTGATCG | -0.0108 |
| AGTGCGAT | 0.0568 |
| TATAAGAA | -0.166 |
| AACGGAAG | 0.2 |
| TTGCTAAA | -0.105 |
| ATCCGTCA | 0.162 |
| AGATGTTA | -0.0771 |
| AGTGTTGC | -0.0255 |
| CAACATGG | -0.142 |
| CAACCCTG | -0.111 |
| ATCAGTGG | -0.262 |
| ACGAAACC | 0.174 |
| ATCAGAGA | -0.161 |
| TATGTAGA | -0.166 |
| CATAAGAA | -0.139 |
| TAGTAATA | -0.0394 |
| CTATTACA | -0.0534 |
| GCGGCCAC | 0.209 |
| ATCTTTGA | -0.0864 |
| AAACAAAA | -0.00997 |
| CAGAACGA | -0.168 |

Study 4
Target: RNA binding protein fox-1 homolog 2, RRM domain, GST-SBP tag (RBFOX2, Homo sapiens, UniProt O43251-10, residues 100-194)
Technique: RNA Bind-n-Seq
Molecule type: RNA
Matrix: in vitro
Tested at: 365 nM
Notes: natural RNA segment, single round, ends assumed
Baseline: no-protein control
Direction: higher = stronger binding
Residues (chain): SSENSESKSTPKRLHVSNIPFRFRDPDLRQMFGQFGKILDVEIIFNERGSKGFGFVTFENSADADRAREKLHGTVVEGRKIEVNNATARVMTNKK
| Oligonucleotide | RBNS enrichment (R) |
| --- | --- |
| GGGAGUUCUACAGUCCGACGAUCCACUUUGAGGAGAGCAAAGCACAAGCUUGCCUGAAGAAUGGAUCCCAACUUCUCCCCGGCAGCUCUGCCUCCCUAAGUCUGUGAAGCCGCAGCCCUGCCCUGUCCUGUCCUGGAAUUCUCGGGUGCCAA | 0.577 |
| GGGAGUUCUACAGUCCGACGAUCCAAGAAGGUUUCCUAUACUAUACAUAUAUAUACGUUCUGGUUGGCAAGCCCUGCUGAUCAGAGAAAGUCUCUGCAUGUUCUAGUGUUAGUAACUAAUUUUUAUAUAGUUAUGGAAUUCUCGGGUGCCAA | 0.598 |
| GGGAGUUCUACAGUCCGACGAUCAAUUUGGGAUACAUAUAAGUUAAUCUUAUCAAAUAAUAUUUAAAAUUGUCAAUCAAUUUUACCAAUAACAAAGCCAAUAAUAUACUGUUAACAAAGACAAACUGCUUCGAUGGAAUUCUCGGGUGCCAA | 0.474 |
| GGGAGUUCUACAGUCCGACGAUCGUGCUGGAACAGAUUGUCUGGGAGGCUAGAGCCCUGCCUGUAGAGAAAACACUCUUCUCAGGAGUAGGAGAGCCUGGAGGGCUGUCAGCACCACAGUGACCUAAGCGGCUUGGAAUUCUCGGGUGCCAA | 0.988 |
| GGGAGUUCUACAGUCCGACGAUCCUGAAGUCUCUAUUUUCCAAGUUGUCCUUUCUCUUAAAAUACCCUUUACUGAUUUAAUACAGAAUAACAAUCUUAUUUUCCACUUGGUAACUAUGGCUUUAUGUUGGGUUUGGAAUUCUCGGGUGCCAA | 0.417 |
| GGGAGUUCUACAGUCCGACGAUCGGUUGGCAGGGCUGCCAUCCCAGCUGGCCGGAAAGAGGCUGUGGUUUCGAAUAUGCAGAUGGCCUUGGAGCCUUAAGACAGGUGCCGGGCUGGCUGCAGACAGGGUGGCUUGGAAUUCUCGGGUGCCAA | 0.339 |
| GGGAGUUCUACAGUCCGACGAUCUACUAAGACACCAAAUAGUGUCCAUGUAAGAUGGCAACUGCAUUAAAAAAAAAUCAGGAAAAACAAAUGUUUGGUUAUUGUUUUGUUUUAUCUUGUCUGUUAGAGAUGCUUGGAAUUCUCGGGUGCCAA | 3.49 |
| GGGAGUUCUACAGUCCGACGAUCUUCUGAGUUUUGUGGUGCUGUAGCGAUCUCUCAGCACCUAUCUCGAGCGAGGAGCUGAUGAGUCCCUUGCAGCCUCCAGUCUGACCCAGAGUGGCAGGUAUCCUGGCAUGUGGAAUUCUCGGGUGCCAA | 1.1 |
| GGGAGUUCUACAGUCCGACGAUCAAGUUCCCAAACCUCCUUGUGCCUCAGUUUCCCCAUCUGGAAAAAAUGGGGCCACCUCUUGCCAGCAGUAGCAGGGCUGCCCACGCCCCUUUCUCCCCAUGCCCCAUCCAUGGAAUUCUCGGGUGCCAA | 0.47 |
| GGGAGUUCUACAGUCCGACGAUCUCGCUGCUUCGUUGUCUGAUUUUGCUUAGAUUUUGCUUUGGUUAGGUUGCGUUUUGGGGUUUGCCUUUUUUUGUUGUCGCUUAAAUGCAAUUUGGUUGUAAAGAUUUGAUUGGAAUUCUCGGGUGCCAA | 0.631 |
| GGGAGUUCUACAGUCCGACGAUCUGUUACCGCAGGUCAGUAUUUUCUAAGGUGCGCGAGGCACACGGAUCUGAGUGAGGCGUAGGAGGGAAGGCGCAUGGACUGGAACUUGCAAGUUGACUCUGGUUAUGCAAUGGAAUUCUCGGGUGCCAA | 2.27 |
| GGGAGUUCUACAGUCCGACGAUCGGCUUAGGUUACCCUAGCUGGUUUUGUCCGUGUAAACAUUGAAAGUAUUAUAUUUUUAUAGAAAUGUUUAUUUUUAAUGAUGUAAGAAAAAUUUUCCUUAGGCCGCAGAAUGGAAUUCUCGGGUGCCAA | 0.664 |

Repeated from above (study 3):
| Oligonucleotide | E-score |
| --- | --- |
| ATCCGTCA | 0.162 |
| TATGTAGA | -0.166 |
| CATAAGAA | -0.139 |
| AAGGAAGC | -0.0346 |
| AAACAAAA | -0.00997 |
| CGCCGAGA | 0.258 |
| CAACATGG | -0.142 |
| GCGGCCAC | 0.209 |
| ACGAAACC | 0.174 |
